Experimental data gathered from unrelated publications.
Numbers after ± are the reported error.
FURIN: Furin (FURIN, Homo sapiens, UniProt P09958)
PTPN1: Tyrosine-protein phosphatase non-receptor type 1 (PTPN1, Homo sapiens, UniProt P18031)
CASP3: Caspase-3 (CASP3, Homo sapiens, UniProt P42574)

By UniProt entry, the sequences of proteins in these tests, tags left out. Residues count along the entry.
UniProt P09958, whole entry, looked up: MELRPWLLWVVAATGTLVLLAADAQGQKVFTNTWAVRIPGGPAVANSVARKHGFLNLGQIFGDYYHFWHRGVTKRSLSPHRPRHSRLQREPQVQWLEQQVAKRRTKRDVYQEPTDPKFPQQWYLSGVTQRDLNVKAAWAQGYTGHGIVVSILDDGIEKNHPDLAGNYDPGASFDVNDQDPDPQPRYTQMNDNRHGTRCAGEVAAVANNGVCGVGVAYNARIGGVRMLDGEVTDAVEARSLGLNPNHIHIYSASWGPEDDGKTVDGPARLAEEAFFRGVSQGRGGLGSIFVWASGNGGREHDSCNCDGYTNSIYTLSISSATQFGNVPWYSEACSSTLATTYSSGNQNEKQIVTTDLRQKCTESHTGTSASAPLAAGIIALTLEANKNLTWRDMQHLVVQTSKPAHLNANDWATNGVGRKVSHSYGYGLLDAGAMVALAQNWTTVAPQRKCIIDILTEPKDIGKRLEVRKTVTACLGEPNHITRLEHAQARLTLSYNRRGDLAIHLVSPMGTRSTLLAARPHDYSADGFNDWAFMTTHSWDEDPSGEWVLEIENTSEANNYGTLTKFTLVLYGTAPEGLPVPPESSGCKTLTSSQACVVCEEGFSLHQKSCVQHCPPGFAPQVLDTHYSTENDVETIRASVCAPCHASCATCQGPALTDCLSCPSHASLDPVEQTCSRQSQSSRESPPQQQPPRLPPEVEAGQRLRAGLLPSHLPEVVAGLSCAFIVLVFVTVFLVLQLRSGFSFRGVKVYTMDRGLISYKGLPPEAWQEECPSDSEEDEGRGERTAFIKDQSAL
UniProt P18031, 1-321 limits assumed: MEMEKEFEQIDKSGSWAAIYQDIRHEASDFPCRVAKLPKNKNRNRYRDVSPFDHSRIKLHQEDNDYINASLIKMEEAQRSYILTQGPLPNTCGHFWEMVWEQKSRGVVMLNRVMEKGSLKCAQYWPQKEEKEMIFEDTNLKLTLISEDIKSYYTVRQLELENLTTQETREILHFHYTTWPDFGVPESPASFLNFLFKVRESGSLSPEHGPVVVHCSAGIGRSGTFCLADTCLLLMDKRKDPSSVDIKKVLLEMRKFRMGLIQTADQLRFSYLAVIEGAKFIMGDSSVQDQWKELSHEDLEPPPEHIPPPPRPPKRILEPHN
UniProt P18031, whole entry: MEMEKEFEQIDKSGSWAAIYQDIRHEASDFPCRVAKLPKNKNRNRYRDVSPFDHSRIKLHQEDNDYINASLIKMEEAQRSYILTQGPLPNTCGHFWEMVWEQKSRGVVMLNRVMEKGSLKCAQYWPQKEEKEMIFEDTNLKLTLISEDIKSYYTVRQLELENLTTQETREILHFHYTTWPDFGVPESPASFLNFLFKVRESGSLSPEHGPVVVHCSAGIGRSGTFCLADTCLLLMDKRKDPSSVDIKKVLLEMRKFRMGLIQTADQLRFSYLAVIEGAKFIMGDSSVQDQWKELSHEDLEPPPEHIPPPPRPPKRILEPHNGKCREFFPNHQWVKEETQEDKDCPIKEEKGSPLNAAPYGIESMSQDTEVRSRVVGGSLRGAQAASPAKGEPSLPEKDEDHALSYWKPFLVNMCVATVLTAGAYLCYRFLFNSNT
UniProt P42574, whole entry, looked up: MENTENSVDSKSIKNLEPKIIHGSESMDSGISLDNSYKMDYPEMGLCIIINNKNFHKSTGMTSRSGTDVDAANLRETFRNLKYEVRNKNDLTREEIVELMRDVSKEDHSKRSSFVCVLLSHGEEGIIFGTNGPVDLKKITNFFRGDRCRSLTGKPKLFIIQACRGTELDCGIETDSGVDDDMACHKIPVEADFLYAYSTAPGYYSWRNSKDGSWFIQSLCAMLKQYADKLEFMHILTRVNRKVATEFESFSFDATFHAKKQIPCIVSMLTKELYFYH
UniProt P12389, 28-511 limits assumed: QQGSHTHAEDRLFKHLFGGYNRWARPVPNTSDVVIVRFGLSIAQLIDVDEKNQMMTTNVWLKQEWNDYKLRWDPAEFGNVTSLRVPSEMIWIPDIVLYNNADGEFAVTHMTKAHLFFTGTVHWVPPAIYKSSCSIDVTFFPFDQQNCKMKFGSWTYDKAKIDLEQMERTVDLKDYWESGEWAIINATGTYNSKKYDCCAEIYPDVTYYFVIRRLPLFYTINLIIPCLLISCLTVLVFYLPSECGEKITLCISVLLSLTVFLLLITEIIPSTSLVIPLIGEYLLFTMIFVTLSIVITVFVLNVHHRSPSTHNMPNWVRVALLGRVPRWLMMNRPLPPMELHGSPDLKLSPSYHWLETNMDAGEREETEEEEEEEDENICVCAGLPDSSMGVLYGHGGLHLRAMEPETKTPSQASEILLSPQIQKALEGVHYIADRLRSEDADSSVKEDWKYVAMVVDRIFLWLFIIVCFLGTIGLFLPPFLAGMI
UniProt P12390, 25-500 limits assumed: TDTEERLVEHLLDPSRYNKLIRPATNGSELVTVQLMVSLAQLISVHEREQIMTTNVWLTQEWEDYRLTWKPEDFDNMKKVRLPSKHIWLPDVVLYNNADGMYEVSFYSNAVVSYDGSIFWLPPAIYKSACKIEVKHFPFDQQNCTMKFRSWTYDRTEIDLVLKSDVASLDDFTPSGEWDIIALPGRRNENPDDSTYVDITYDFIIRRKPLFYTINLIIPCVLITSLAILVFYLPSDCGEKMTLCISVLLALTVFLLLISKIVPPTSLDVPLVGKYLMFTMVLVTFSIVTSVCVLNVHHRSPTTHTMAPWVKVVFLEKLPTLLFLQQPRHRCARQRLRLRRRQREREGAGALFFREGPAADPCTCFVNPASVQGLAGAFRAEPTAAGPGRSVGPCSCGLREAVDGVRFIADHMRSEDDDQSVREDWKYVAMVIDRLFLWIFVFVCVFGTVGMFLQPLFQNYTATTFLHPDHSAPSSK
UniProt P18433, 224-802 limits assumed: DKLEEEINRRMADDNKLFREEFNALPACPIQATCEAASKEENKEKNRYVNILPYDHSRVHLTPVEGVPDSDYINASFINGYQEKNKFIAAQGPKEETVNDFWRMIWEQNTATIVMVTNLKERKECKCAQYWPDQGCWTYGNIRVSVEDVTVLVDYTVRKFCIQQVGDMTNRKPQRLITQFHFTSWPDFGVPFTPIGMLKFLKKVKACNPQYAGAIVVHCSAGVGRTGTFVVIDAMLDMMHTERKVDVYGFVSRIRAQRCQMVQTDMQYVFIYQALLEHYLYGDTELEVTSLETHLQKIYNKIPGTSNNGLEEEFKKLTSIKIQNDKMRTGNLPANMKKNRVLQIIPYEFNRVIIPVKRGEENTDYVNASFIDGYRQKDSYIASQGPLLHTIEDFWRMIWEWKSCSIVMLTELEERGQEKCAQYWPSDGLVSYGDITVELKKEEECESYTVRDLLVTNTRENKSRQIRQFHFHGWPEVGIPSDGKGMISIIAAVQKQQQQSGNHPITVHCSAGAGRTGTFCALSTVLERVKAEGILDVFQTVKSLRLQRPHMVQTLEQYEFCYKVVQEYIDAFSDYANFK
UniProt F1M9V7, 1-920: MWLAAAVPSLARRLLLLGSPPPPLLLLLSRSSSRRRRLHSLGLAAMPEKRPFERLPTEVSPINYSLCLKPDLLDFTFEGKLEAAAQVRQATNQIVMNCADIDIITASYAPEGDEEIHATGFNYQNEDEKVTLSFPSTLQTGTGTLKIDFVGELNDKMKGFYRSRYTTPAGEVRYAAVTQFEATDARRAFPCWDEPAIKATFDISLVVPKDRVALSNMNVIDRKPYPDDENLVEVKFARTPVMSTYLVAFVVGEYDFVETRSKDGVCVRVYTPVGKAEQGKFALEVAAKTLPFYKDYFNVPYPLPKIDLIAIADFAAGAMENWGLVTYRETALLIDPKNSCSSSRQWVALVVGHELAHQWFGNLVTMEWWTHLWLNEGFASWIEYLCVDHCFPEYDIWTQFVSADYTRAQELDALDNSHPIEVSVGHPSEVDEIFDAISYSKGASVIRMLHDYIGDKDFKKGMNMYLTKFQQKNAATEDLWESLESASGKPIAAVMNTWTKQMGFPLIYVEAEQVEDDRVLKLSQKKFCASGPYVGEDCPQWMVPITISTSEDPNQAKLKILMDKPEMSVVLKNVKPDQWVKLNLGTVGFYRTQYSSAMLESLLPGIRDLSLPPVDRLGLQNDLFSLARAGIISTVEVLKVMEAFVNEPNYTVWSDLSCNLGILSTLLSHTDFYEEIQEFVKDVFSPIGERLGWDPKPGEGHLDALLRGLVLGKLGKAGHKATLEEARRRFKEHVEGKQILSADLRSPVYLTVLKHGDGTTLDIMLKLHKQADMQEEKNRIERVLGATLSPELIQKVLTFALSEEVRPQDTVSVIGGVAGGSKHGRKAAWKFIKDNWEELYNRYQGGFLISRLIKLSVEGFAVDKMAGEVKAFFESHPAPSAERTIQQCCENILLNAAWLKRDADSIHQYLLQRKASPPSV
UniProt P46098, 24-478 limits assumed: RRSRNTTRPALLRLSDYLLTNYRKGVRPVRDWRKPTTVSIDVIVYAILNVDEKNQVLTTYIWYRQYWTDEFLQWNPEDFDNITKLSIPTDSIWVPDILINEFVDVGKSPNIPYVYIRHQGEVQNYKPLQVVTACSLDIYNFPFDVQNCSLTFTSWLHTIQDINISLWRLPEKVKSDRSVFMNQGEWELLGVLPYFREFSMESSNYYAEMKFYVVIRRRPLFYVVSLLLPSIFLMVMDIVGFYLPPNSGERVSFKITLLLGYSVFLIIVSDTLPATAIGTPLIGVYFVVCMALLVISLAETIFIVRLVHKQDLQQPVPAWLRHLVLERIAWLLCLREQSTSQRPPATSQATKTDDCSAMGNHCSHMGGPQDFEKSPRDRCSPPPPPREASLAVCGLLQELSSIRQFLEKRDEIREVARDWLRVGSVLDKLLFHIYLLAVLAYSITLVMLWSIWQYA
UniProt P22303, whole entry, looked up: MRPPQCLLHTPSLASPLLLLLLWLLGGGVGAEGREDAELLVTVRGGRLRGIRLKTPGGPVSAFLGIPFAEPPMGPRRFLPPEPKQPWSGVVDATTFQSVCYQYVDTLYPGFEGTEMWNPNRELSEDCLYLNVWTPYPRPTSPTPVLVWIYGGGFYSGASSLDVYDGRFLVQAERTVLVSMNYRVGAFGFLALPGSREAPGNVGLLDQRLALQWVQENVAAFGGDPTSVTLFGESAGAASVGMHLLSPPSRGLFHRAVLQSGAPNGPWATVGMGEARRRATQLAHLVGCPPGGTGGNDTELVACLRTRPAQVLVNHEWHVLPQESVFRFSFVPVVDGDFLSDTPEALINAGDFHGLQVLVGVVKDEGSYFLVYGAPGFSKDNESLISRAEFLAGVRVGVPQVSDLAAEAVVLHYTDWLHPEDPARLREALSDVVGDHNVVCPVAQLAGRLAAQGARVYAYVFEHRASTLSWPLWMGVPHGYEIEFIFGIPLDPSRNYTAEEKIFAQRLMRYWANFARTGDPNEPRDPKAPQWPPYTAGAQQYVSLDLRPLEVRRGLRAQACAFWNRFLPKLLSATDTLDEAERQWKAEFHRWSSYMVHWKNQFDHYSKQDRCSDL
UniProt O07911, 1-430: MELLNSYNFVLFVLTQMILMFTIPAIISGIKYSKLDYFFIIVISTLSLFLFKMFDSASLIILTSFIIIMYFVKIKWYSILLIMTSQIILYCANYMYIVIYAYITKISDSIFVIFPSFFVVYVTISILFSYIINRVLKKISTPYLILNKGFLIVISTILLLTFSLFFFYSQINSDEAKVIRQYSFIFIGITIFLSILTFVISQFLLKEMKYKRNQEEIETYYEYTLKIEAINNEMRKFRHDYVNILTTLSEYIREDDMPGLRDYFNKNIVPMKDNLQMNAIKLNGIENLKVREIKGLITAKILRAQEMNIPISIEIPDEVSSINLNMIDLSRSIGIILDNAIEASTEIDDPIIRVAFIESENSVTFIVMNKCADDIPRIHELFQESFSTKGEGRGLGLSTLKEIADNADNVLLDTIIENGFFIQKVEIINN
UniProt Q585F3, whole entry, looked up: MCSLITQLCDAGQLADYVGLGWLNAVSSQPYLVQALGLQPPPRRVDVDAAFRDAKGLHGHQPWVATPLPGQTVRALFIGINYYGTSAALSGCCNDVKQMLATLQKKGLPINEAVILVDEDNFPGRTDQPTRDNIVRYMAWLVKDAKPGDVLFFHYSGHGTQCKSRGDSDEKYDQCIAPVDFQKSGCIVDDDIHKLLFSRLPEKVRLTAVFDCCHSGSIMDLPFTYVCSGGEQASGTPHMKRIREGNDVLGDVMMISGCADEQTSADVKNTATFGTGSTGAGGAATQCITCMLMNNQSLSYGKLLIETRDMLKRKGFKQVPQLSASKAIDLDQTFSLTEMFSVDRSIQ

CC[C@H](C)[C@@H]1NC(=O)[C@H](CCC(=O)O)NC(=O)[C@@H]2CCCN2C(=O)[C@H](Cc2c[nH]cn2)NC(=O)[C@H](CCCNC(=N)N)NC(=O)[C@H](C(C)C)NC(=O)[C@H](CC(N)=O)NC(=O)[C@@H]2CSSC[C@H](NC(=O)CN)C(=O)N[C@@H](CSSC[C@@H](C(N)=O)NC1=O)C(=O)N[C@@H](CO)C(=O)N[C@@H](Cc1c[nH]cn1)C(=O)N1CCC[C@H]1C(=O)N[C@@H](C(C)C)C(=O)N2
IC50 (Neuronal acetylcholine receptor; alpha2/beta2 (Rattus norvegicus, UniProt P12389+P12390); ion current, antagonist, two-electrode voltage clamp; Xenopus oocytes; rat, added: ACh 100 µM): > 10 µM

CC(C)C[C@H](NC(=O)[C@H](CO)NC(=O)[C@@H](N)CCCNC(=N)N)C(=O)N[C@@H](Cc1ccc(O)cc1)C(=O)N[C@@H](CC(N)=O)C(=O)N[C@H](C(=O)N[C@H](C(=O)N[C@@H](C)C(=O)N[C@H](C(=O)N[C@@H](CC(C)C)C(=O)N[C@@H](Cc1ccc(O)cc1)C(=O)O)[C@@H](C)O)C(C)C)[C@@H](C)O
activity class (HLA class I histocompatibility antigen, A alpha chain, allele A*26:03 (Homo sapiens, UniProt P04439); concentration not given): inactive

CC(C)C[C@H](NC(=O)[C@H](Cc1ccccc1)NC(=O)[C@H](CCCNC(=N)N)NC(=O)[C@H](CCCNC(=N)N)NC(=O)[C@H](CCCCN)NC(=O)[C@H](CCCNC(=N)N)NC(=O)[C@H](CCCCN)NC(=O)[C@H](CCCCN)NC(=O)c1ccccc1N)C(=O)NCC(=O)N[C@@H](Cc1ccccc1)C(=O)N[C@@H](CCC(N)=O)C(=O)NCCNc1ccc([N+](=O)[O-])cc1[N+](=O)[O-]
kcat (FURIN; substrate; pH 7): 1.1 s⁻¹

CC(=O)N[C@@H](C)C(=O)N[C@@H](Cc1ccc(OP(=O)(O)O)cc1)C(=O)N[C@@H](Cc1ccc(O)cc1)C(=O)N[C@@H](C)C(=O)N[C@@H](CCC(=O)O)C(=O)N[C@@H](CO)C(=O)N[C@@H](Cc1ccc(OP(=O)(O)O)cc1)C(=O)N[C@@H](C)C(=O)N[C@@H](C)C(N)=O
kcat/Km (PTPN1; substrate, continuous UV; pH 7.4): 5.1e+06 M⁻¹ s⁻¹

C[C@H](NC(=O)[C@H](C)NC(=O)[C@H](Cc1ccc(OP(=O)(O)O)cc1)NC(=O)[C@H](Cc1ccccc1)NC(=O)[C@H](CCC(=O)O)NC(=O)[C@H](Cc1cc(F)c(O)c(F)c1)NC(=O)[C@H](CCC(=O)O)NC(=O)[C@@H](N)CCCNC(=N)N)C(N)=O
kcat/Km (PTPN1; enzyme activity, substrate; pH 7.4): 3.2e+06 M⁻¹ s⁻¹

CC(C)C[C@H](NC(=O)[C@H](CC(C)C)NC(=O)[C@@H](NC(=O)[C@H](CS)NC(=O)[C@H](CC(C)C)NC(=O)[C@H](C)NC(=O)[C@H](CC(=O)O)NC(=O)[C@H](Cc1ccc(O)cc1)NC(=O)[C@@H](N)Cc1c[nH]c2ccccc12)C(C)C)C(=O)O
z-score (HLA class I histocompatibility antigen, C alpha chain, allele C*04:01 (Homo sapiens, UniProt P10321); direction not given): -4.15

CC(=O)N[C@@H](CCC(=O)O)C(=O)N[C@@H](C)C(=O)N[C@@H](CC(=O)O)C(=O)N[C@H](C(=O)N[C@@H](C)C(=O)N[C@@H](Cc1ccc(OP(=O)(O)O)cc1)C(=O)N[C@@H](C)C(=O)N[C@@H](C)C(N)=O)[C@@H](C)O
kcat (Receptor-type tyrosine-protein phosphatase alpha, residues 224-802 (Homo sapiens, UniProt P18433); phosphatase activity, substrate; pH 7.4, added: phosphotyrosine peptide): 26 ± 1 s⁻¹

CC(C)C[C@H](NC(=O)[C@H](Cc1ccc(O)cc1)NC(=O)[C@@H]1CCCN1C(=O)[C@H](CCC(N)=O)NC(=O)[C@H](CCC(N)=O)NC(=O)[C@H](CO)NC(=O)[C@@H]1CCCN1C(=O)[C@@H](N)Cc1ccccc1)C(=O)O
z-score (HLA class I histocompatibility antigen, B alpha chain, allele B*51:01 (Homo sapiens, UniProt P01889); direction not given): -3.81

CC[C@H](C)[C@H](NC(=O)[C@@H](NC(=O)[C@H](CC(=O)O)NC(=O)CNC(=O)[C@@H](NC(=O)[C@H](CC(=O)O)NC(=O)[C@H](CCSC)NC(=O)[C@H](CCC(=O)O)NC(=O)[C@H](CC(=O)O)NC(=O)[C@@H](NC(=O)CCNC(=O)Cc1cc(=O)oc2cc(N)ccc12)C(C)C)[C@@H](C)OP(=O)(O)O)[C@@H](C)O)C(=O)N[C@@H](CCCCNc1ccc([N+](=O)[O-])cc1[N+](=O)[O-])C(N)=O
Km (CASP3; substrate; pH 7.2): 17.6 µM

CC(C)C[C@H](NC(=O)c1ccccc1N)C(=O)N[C@@H](CCCCN)C(=O)N[C@@H](CCCNC(=N)N)C(=O)N[C@@H](CCCNC(=N)N)C(=O)N[C@@H](CCCCN)C(=O)N[C@@H](CCCNC(=N)N)C(=O)N[C@@H](C)C(=O)N[C@H](C(=O)N[C@@H](CC(N)=O)C(=O)N1CCC[C@H]1C(=O)N[C@@H](CCC(N)=O)C(=O)NCCNc1ccc([N+](=O)[O-])cc1[N+](=O)[O-])C(C)C
kcat (FURIN; substrate; pH 7): 1 s⁻¹

CSCC[C@H](NC(=O)[C@H](C)NC(=O)[C@@H]1CCCN1C(=O)[C@H](CC(=O)O)NC(=O)[C@H](CC(=O)O)NC(=O)[C@@H](NC(=O)[C@H](CCC(=O)O)NC(=O)[C@H](CO)NC(=O)[C@@H](N)CCC(=O)O)C(C)C)C(=O)O
z-score (HLA class I histocompatibility antigen, A alpha chain, allele A*80:01 (Homo sapiens, UniProt P04439); direction not given): 0.38

CC(=O)N[C@@H](C)C(=O)N[C@@H](C)C(=O)N[C@@H](Cc1ccc(OP(=O)(O)O)cc1)C(=O)N[C@@H](Cc1c[nH]c2ccccc12)C(=O)N[C@@H](C)C(=O)N[C@@H](Cc1ccc(O)cc1)C(=O)N[C@@H](CC(=O)O)C(=O)N[C@@H](CC(=O)O)C(N)=O
kcat (PTPN1; substrate; pH 7.4, catalytic domain): 34 ± 1 s⁻¹

C[C@@H](O)[C@H](NC(=O)[C@H](CCC(N)=O)NC(=O)[C@H](CCCNC(=N)N)NC(=O)[C@H](CCCNC(=N)N)NC(=O)[C@H](CCCNC(=N)N)NC(=O)[C@H](CCCNC(=N)N)NC(=O)[C@H](CO)NC(=O)[C@H](CCC(N)=O)NC(=O)c1ccccc1N)C(=O)N1CCC[C@H]1C(=O)N1CCC[C@H]1C(=O)N[C@@H](CCC(N)=O)C(=O)NCCNc1ccc([N+](=O)[O-])cc1[N+](=O)[O-]
hydrolysis rate (FURIN; substrate; concentration not given, added: KCl): decreased

CC(C)C[C@H](NC(=O)[C@H](Cc1ccccc1)NC(=O)CNC(=O)CNC(=O)[C@@H](N)Cc1ccc(O)cc1)C(=O)O
Km (Puromycin-sensitive aminopeptidase (Rattus norvegicus, UniProt F1M9V7); substrate; rat enzyme): 117 µM

N#Cc1c(-c2ccc(Cl)cc2Cl)n(-c2nc(-c3ccc(Cl)cc3)c3c(NC(=O)c4ccccc4)nnc-3[nH]2)[nH]c1=O
CC50 (SK-MEL-28; SRB): > 100 µM

CC(C)[C@H](NC(=O)[C@H](CO)NC(=O)[C@H](CC(=O)O)NC(=O)[C@H](CCC(N)=O)NC(=O)CCNC(=O)Cc1cc(=O)oc2cc(N)ccc12)C(=O)N[C@@H](CC(=O)O)C(=O)N[C@@H](Cc1ccccc1)C(=O)N[C@@H](COP(=O)(O)O)C(=O)N[C@@H](CC(N)=O)C(=O)N[C@@H](Cc1c[nH]cn1)C(=O)N[C@@H](CC(=O)O)C(=O)N[C@@H](CCCCNc1ccc([N+](=O)[O-])cc1[N+](=O)[O-])C(N)=O
Km (CASP3; substrate; pH 7.2): 16.4 µM

c1ccc(CCN2CCN=C2Cc2ccccc2)cc1
inhibition (HTR3A (Homo sapiens, UniProt P46098); calcium signal; HEK; 10.3 µM, added: 5-HT 1 µM): 78 ± 2.1%

CCOP(=O)(OCC)Oc1ccc2c(C)cc(=O)oc2c1
efficacy (ACHE (Homo sapiens, UniProt P22303); enzyme activity): -98.6 ± 5.66%

CC(=O)N[C@@H](C)C(=O)N[C@@H](C)C(=O)N[C@@H](C)C(=O)N[C@@H](C)C(=O)N[C@@H](C)C(=O)N[C@@H](Cc1ccc(OP(=O)(O)O)cc1)C(=O)N[C@@H](CCC(=O)O)C(=O)N[C@@H](CCC(=O)O)C(=O)N[C@H](C(=O)N[C@@H](Cc1c[nH]cn1)C(N)=O)C(C)C
kcat/Km (PTPN1; substrate, continuous UV; pH 7.4): 1.1e+06 M⁻¹ s⁻¹

Cc1nn(-c2ccc(Cl)cc2)c2c1C(c1ccc(O)cc1)C(C#N)=C(N)O2 (stereo not shown)
viability (Vero E6; 6.3 µM): 70.8%

CC(C)C[C@@H]1NC(=O)[C@H](CO)NC(=O)[C@H](CO)NC(=O)[C@@H](NC(=O)CCc2cn(CCOCCOCCOCCOCCOCCOCCOCCO)nn2)CSC(=O)[C@H](Cc2ccccc2)NC1=O
inhibition (agrC (Staphylococcus aureus, UniProt O07911); Agr quorum sensing, antagonist, fluorescence reporter; Staphylococcus aureus, agr-deleted reporter strain, solution; concentration not given, added: AIP-I 0.1 µM): inhibited

C[C@H](NC(=O)[C@H](CCCCN)NC(=O)c1ccccc1N)C(=O)N[C@@H](CCCNC(=N)N)C(=O)N[C@@H](CO)C(=O)N[C@@H](CO)C(=O)N[C@@H](C)C(=O)N[C@@H](CCC(N)=O)C(=O)NCCNc1ccc([N+](=O)[O-])cc1[N+](=O)[O-]
kcat/KM (Metacaspase-2 (MCA2, Trypanosoma brucei brucei, UniProt Q585F3); substrate, FRET; Trypanosoma brucei; pH 7.4, 25 °C, 2.5 mM DTT, added: 1 mM CaCl2): 2.1e+06 M⁻¹ s⁻¹

Excerpt of the above:
CSCC[C@H](NC(=O)[C@H](C)NC(=O)[C@@H]1CCCN1C(=O)[C@H](CC(=O)O)NC(=O)[C@H](CC(=O)O)NC(=O)[C@@H](NC(=O)[C@H](CCC(=O)O)NC(=O)[C@H](CO)NC(=O)[C@@H](N)CCC(=O)O)C(C)C)C(=O)O
z-score (HLA class I histocompatibility antigen, A alpha chain, allele A*80:01 (Homo sapiens, UniProt P04439); direction not given): 0.38

CC(=O)N[C@@H](C)C(=O)N[C@@H](C)C(=O)N[C@@H](Cc1ccc(OP(=O)(O)O)cc1)C(=O)N[C@@H](Cc1c[nH]c2ccccc12)C(=O)N[C@@H](C)C(=O)N[C@@H](Cc1ccc(O)cc1)C(=O)N[C@@H](CC(=O)O)C(=O)N[C@@H](CC(=O)O)C(N)=O
kcat (PTPN1; substrate; pH 7.4, catalytic domain): 34 ± 1 s⁻¹

C[C@@H](O)[C@H](NC(=O)[C@H](CCC(N)=O)NC(=O)[C@H](CCCNC(=N)N)NC(=O)[C@H](CCCNC(=N)N)NC(=O)[C@H](CCCNC(=N)N)NC(=O)[C@H](CCCNC(=N)N)NC(=O)[C@H](CO)NC(=O)[C@H](CCC(N)=O)NC(=O)c1ccccc1N)C(=O)N1CCC[C@H]1C(=O)N1CCC[C@H]1C(=O)N[C@@H](CCC(N)=O)C(=O)NCCNc1ccc([N+](=O)[O-])cc1[N+](=O)[O-]
hydrolysis rate (FURIN; substrate; concentration not given, added: KCl): decreased
